Experimental data of several laboratories.
Parts stem from different laboratories: compare values within a part only. Changes are numbered by the printed parent chain.

Sample 1
Target: ABI1, truncated, D143A, DHFR fusion (Arabidopsis thaliana)
Technique: DHFR PCA, deep sequencing
Matrix: yeast
Setting: methotrexate growth selection, single substitutions
With: (+)-ABA 0 µM
Baseline: wild-type fitted maximum
Reading: higher = stronger binding
Starting sequence: PYL1, truncated, DHFR fusion (Arabidopsis thaliana); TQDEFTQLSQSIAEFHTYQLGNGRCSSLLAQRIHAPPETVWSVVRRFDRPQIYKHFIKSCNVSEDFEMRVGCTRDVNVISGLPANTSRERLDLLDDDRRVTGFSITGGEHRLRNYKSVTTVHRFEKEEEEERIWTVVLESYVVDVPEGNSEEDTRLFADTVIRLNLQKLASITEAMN
Change | relative binding score [%]
P83S | 25.5
C60I | 7.33
G23H | 11.5
L94M | 10.2
L20Q | 28.5
E130D | 30.6
F47W | -0.34

Sample 2
Target: RING finger protein unkempt homolog, zinc fingers 1-6, GST-SBP tag (UNK, Homo sapiens, UniProt Q9C0B0, residues 30-357)
UniProt Q9C0B0, sequence (30-357, looked up): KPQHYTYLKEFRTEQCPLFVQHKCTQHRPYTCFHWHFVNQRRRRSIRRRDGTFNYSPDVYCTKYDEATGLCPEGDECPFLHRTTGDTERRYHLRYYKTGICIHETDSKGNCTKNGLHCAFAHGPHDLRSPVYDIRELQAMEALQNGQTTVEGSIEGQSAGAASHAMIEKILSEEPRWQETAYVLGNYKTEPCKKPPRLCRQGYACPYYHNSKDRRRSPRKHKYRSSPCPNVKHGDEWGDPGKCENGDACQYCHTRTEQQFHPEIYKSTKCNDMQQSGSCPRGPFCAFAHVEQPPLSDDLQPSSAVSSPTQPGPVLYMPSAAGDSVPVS
Technique: RNA Bind-n-Seq
Molecule type: RNA
Matrix: in vitro
Concentration: not given
Setting: RNA with constant flanks, ends assumed
Baseline: input RNA pool
Reading: higher = stronger binding
All sequences stand within: GGGAGUUCUACAGUCCGACGAUC … CAACAGAGGAUUGAGCAUCA
Sequence | bound/input enrichment [ratio]
ACUCAGAAGCCAGUUCAUCAGCUCUUUGAUUACAUUUGUGGUGUAAGCACAGGUGCCAUAUCCGCUUUCAUGUUGGGGUUGUUUCAUAUGCCCUUGGAUGAAUGUGAGGAACUUUAUCGA | 0.111
GGCGUGCUCUGCGUGCUGUCCGCGGACAAGAACACGACCCAGCACCCGAACGUGACGACUUCCGCGCCCAUCUCCAACGUAACCUCGGCGCCGGUGACGUCCCUCCCGCUGGUCACCACU | 0.109
GCACCCCCUGGUCGCCCUGAGGCGCAGCCUCCUCCUCUCAGCUCUGAGCAUAAAGAGCCGGCCGCCGGGGACGCAGUGCCCGGGCCAAAGGAUGGCAGCGCCCCAGAGGUCCGAGGCGCU | 0.101
AAGACUGAAUUAAGUGAAAUUGUACUUUAUUUUACAUAUAUAAUGUCAUGUACAACUUGGCUCCGACCGUGUUUUUGGGGGGGAUUUUUGUUUUGGUGUUUAUUUUUACACAAGGAAAGU | 0.555
UUGGAUUCAUUAGCAGAAAGCCCUGAGUCUGACUUUAUGUCUGCUGUGAAUGAGUUUGUGACCGAAGAAAAUUUAUCGUCUCCAAACCCUAUAAGUGAUCCACAAAGUCCAGAAAUGAUG | 0.117

Sample 3
Target: CCND2, cyclin fold, Cln2 fusion (human)
Technique: yeast growth competition, sequencing
Matrix: yeast
Setting: weak parent motif
Baseline: not given
Reading: higher = stronger binding
Starting sequence: WEE1 docking peptide (human); HKTFRKLRLFDTP; partner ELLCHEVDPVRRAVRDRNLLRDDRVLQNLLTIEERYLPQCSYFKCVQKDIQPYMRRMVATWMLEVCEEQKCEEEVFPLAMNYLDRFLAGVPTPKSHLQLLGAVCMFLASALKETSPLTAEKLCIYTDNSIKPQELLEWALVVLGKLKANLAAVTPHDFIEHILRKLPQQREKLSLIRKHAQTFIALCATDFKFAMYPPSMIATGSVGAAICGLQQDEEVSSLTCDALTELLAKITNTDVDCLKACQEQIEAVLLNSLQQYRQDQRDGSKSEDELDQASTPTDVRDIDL
Change | normalised enrichment score
P13S | 0.274
L7S | -0.422
T3Q | -0.14
T3W | 0.357
R8N | 0.0161
H1Y | -0.0606

Mixed results
Molecule | target | test | test system | setting | how to read | endpoint | result
PhoQ, residues 284 288 289 292 302 303 SSTLSG | PhoP, residues 12 14 15 18 19 IFFTR (Escherichia coli, UniProt P23836) | Sort-seq, item: YFP reporter | E. coli | PhoQ-PhoP variant library, with: 10 µM Mg2+ | baseline: high Mg2+ state, higher = stronger signaling | fold induction | 5.26
